Published values pooled from the literature.
Protocols differ between the studies behind these lines. ± marks the error that the study gave.

SMILES	cell line	assay	setting	IC50 [µM]
CC(C)c1ccc2c(c1)CC[C@H]1[C@](C)(CN)CCC[C@]21C	WM35	cell growth or viability, MTS	24 h	7.02
CC[C@@]1(O)C(=O)OCc2c1cc1n(c2=O)Cc2cc3ccccc3nc2-1	PC-3	cell growth or viability, MTT	48 h	1.49
COc1c(O)cc2oc3cc(O)c4c(c3c(=O)c2c1CCC(C)(C)O)OC(C)(C)CC4	HT-29	cytotoxicity, sulforhodamine B	72 h	> 20
N.N.[Cl][Pt][Cl]	PC-3M	cell growth or viability, SRB		12.9
N.N.[Cl][Pt][Cl]	NCI-H1703	cell growth or viability, MTT	4 h	56.8
COc1cc(-n2nnnc2-c2ccccc2)cc(OC)c1OC	HeLa, A549, HL-60, MCF7, HT-29	cell growth	all lines except Jurkat	> 0.9
COc1cc(O)c2c(c1)/C=C/C[C@H](O)[C@H](O)C(=O)/C=C/C[C@H](C)OC2=O	NCI-H460	cell growth or viability	72 h	1.2
N.N.[Cl][Pt][Cl]	SGC-7901/DDP (compound-resistant)	cell viability, CCK-8		5.03 ± 0.199
COCc1c(-c2cc3cc(C)cc(OC)c3s2)c2c(N)ncnn2c1CN1CCNC(=O)C1	HUVEC	cell growth, Alamar Blue	72 h, added: FGF2 5 ng/mL	0.0158
N.N.[Cl][Pt][Cl]	SW620/AD300	cell growth or viability, MTT	72 h	5.12
CC(/C=C/C(C)=C/[C@@H]1Cc2nc(cs2)CC[C@@H](N)CC(=O)O[C@@H](C)C/C(C)=C/C=C\C(=O)O1)=C\CN(C)C	primary CLL cells	apoptosis, annexin V/PI staining	24 h, 10% FBS	0.3 ± 0.27

For quick reference, copied from above:
SMILES	cell line	assay	setting	IC50 [µM]
COc1c(O)cc2oc3cc(O)c4c(c3c(=O)c2c1CCC(C)(C)O)OC(C)(C)CC4	HT-29	cytotoxicity, sulforhodamine B	72 h	> 20
